Published values gathered from unrelated publications.
Numbered parts are unrelated; each lists some results of a single study.

Study 1
Target: Centromere-binding protein 1, full length, N-terminal tag (CBF1, Saccharomyces cerevisiae, UniProt P17106, residues 1-351)
Sequence of UniProt P17106 (whole entry, looked up): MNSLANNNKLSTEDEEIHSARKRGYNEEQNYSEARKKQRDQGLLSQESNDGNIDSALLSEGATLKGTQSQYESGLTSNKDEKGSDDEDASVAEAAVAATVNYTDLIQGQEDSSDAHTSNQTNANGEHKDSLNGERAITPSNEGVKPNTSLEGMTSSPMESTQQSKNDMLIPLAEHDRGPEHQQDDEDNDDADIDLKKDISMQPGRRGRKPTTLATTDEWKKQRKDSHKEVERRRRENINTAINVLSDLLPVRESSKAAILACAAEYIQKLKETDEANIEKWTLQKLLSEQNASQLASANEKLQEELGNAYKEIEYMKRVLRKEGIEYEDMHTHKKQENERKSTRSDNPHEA
Technique: protein-binding microarray
Form: double-stranded DNA, one strand shown
Sample: in vitro
Concentration: 0.8 µM
Notes: whole 60-bp probe, no competitor
Reading: higher = stronger binding
Strand | fluorescence intensity
CTATGTTGTCAAGTGATCATTAATAATAACATGTTCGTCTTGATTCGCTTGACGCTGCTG | 2340 a.u.
CTATTTCATTAAGAGCACGTTTGAGCTTATTAGTTCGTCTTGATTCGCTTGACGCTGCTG | 678 a.u.
GAAGGTGCGAAATTTTACGTGATTCATTTTCTTTAGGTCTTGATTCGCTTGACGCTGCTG | 571 a.u.
CTATTCATAATTTATTTGGTGACATTTCTCTTGTTCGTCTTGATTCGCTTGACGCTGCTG | 561 a.u.
CTATCGATCCCCCTCATCGTGATGTAGTCAACCTTCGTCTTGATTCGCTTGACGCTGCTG | 520 a.u.
GAAACGTTTAATAACAGGGTGACGGAGCTTAAATAGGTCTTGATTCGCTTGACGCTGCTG | 502 a.u.
GAACAATTTTCTCATCACCCCGAAACAACAAAATAGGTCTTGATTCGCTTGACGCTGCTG | 588 a.u.
GAATTCTTCCTTCCTCTCGTGCTTGTTGCAAATTAGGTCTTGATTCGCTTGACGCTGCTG | 583 a.u.
CCTAACTACTATAGTCATGATTAATAGCTTCGTACAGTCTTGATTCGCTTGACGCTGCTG | 520 a.u.
GAAGCGCAAATCGTTTTCATGACGGAGTATTTATAGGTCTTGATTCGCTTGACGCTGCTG | 519 a.u.
CTATACCAACAGCACGGCATGATGACCCCAAACTTCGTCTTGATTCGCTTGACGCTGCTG | 553 a.u.
GAAGTTTTATCGTATCACGGGATTTTATGCTCTTAGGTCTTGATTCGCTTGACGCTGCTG | 3150 a.u.
GAATCGTTTCGTCTCAACGTGGGAACGATCAAATAGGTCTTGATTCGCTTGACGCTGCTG | 507 a.u.
GAATTCGGTTTGCTGAACATCAGGGAAAAAAATTAGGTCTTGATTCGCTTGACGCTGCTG | 561 a.u.
CTAAAAATTTTTCATTGCGTGGGTACATCCGTGTTCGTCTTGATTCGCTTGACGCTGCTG | 538 a.u.
CTACTGGGAAATGCCAACGTGGTCAGACATCAATTCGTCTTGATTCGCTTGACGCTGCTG | 716 a.u.
GAAGTAATTAATGGTGACATGACATGTTATAGCTAGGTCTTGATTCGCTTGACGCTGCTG | 608 a.u.
CCTAACTACTATAGGCATGCGTAATAGCTTCGTACAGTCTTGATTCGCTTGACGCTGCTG | 512 a.u.
TGTACGAAGCTATGTGGTGTTCTTATAGTAGTTAGGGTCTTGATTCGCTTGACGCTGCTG | 533 a.u.
CTACTCAAAACAGTGCACGTGCACCCATGGCATTTCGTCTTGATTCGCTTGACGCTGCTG | 12400 a.u.
CTATGGTTTCAGTCTGTCATGAGGAATAAGGGCTTCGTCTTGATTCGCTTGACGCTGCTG | 558 a.u.
CTAGGCGCAAATTACCATGTGAGCGTGCGGGAATTCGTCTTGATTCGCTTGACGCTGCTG | 1020 a.u.
CCTAACTACTATAACTACACCACATAGCTTCGTACAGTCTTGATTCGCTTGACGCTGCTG | 563 a.u.
CTACCATAACTGCACCACCAATATTTTTCTTGCTTCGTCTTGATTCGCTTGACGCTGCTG | 537 a.u.
CTAATGTATTACTATCACGTGGGTGGGGAAGACTTCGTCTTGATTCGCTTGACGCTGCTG | 10000 a.u.

Study 2
Target: Sal-like protein 4, full length isoform A (SALL4, Homo sapiens, UniProt Q9UJQ4, residues 1-1053)
Sequence of UniProt Q9UJQ4 (whole entry, looked up): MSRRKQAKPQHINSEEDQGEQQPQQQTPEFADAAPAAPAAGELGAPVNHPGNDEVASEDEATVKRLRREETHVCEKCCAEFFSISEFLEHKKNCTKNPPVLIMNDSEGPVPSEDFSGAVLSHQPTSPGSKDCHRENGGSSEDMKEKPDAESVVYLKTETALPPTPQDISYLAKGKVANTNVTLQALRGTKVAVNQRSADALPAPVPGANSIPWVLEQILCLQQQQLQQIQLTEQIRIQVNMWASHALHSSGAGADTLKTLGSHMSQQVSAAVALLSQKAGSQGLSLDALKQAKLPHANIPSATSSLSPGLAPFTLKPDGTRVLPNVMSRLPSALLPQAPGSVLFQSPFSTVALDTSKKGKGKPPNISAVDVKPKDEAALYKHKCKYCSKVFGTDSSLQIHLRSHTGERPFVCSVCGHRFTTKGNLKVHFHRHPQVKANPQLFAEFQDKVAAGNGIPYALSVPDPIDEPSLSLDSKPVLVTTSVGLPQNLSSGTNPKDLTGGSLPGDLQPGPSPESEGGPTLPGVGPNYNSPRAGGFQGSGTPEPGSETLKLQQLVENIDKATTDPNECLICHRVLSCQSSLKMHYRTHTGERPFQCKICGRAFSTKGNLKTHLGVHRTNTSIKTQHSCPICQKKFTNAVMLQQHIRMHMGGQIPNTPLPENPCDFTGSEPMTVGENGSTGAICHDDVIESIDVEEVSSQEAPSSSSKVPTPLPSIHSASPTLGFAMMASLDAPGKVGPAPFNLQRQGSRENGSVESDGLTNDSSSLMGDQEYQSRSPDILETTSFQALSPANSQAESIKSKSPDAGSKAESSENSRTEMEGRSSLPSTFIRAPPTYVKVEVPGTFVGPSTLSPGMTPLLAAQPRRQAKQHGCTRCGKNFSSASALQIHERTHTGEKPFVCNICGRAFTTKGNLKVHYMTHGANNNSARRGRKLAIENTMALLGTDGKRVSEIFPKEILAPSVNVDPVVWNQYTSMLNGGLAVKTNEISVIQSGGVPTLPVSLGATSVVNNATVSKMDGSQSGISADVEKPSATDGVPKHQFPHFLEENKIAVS
Technique: universal PBM
Form: double-stranded DNA, one strand shown
Sample: in vitro
Concentration: 600 nM
Notes: 8-mer, flanks averaged, mean of replicates
Reading: higher = stronger binding
Strand | E-score
CTGCGAAC | -0.119
AAACTCGG | -0.0933
AGCTCATA | 0.187
TCTACACA | 0.0472
CATAGCAG | 0.0407
CAGAGAAA | 0.0343
AAGGACCC | -0.319
GAGAGATC | -0.0713
AGCAGGGG | -0.176
ACAGTCGA | -0.15
GAAATCAC | 0.211
CATCATAC | 0.332
CCGACGGC | -0.357
CTTATCGC | 0.00735
GCGAAGAC | -0.28
GGTCAGGA | -0.13
AGGCCCTG | -0.279
CGGGTCTC | -0.418
CGCTGTAC | -0.0314
CTACAAAC | 0.00411
CCGAGGGC | -0.301
ACTACCCG | -0.289
CTCAGGTA | -0.117
TCAGTGGA | -0.142
ATCATGCA | 0.145

Study 3
Target: RNA binding protein fox-1 homolog 2, RRM domain, GST-SBP tag (RBFOX2, Homo sapiens, UniProt O43251-10, residues 100-194)
Technique: RNA Bind-n-Seq
Form: RNA
Sample: in vitro
Concentration: 365 nM
Notes: natural RNA segment, single round, ends assumed
Relative to: no-protein control
Reading: higher = stronger binding
Target sequence (chain): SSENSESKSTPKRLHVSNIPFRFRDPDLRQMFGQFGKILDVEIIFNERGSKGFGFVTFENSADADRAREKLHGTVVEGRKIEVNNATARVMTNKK
Strand | RBNS enrichment (R)
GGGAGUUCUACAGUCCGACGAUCUCCACUGACCCUUACAGAUGUAGGUAUACCCUUACUGGAGAGGGAACUCUGAUGAGGAGAUGCUGGUAAAUUAUCAUUUUUUAAAUUGCUGGUGAGUCUGACACUUGGUGUGGAAUUCUCGGGUGCCAA | 0.495
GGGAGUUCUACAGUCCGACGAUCUUUGUGGCUGUUUAAGUCACCAACAAUAGAGUCAGGGUAAAGAAUAAAAACACUUUCAUAGCCUCAUUCAUUCACUUAGAAGUGGUAAUAAUUUUUCCCUAAUGAUACCAUGGAAUUCUCGGGUGCCAA | 0.308
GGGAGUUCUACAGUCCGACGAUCGGCAUGCGUACAUGUCAGGUGUUGUUUGAGGUAAAUGAGCACUUCUCACUAAGCUUCGUGUAUAAAUGGAAUACAUUAUUUUUCAAACAAACGAAUAAAUGGCUUACAUGUGGAAUUCUCGGGUGCCAA | 0.301
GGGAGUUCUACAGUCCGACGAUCGCAAGGAACGUGUCCGCAUGGCCUCUCAGCUUGGUAUGUGAAAAGGAAAUAGCAUACUUUUUCAAAAAUAAAUAAAUAAAAAUGGCAUCUCUGAAAAUCCCAUUCUUUGAUGGAAUUCUCGGGUGCCAA | 3.24
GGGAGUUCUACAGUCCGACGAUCCACUUUAUUUCUGACCCCGUGGCUUCGGCUGAGACCUGUGUAACCUGCUGCCCCCUCCACCCCCAACCCAGUCCUACCUGUCACACCGGACGGACCCGCUGUGCCUUCUAUGGAAUUCUCGGGUGCCAA | 3.7
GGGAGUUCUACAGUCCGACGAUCAGCUAAUGACUGGUUAGAAGAUUGACAAACUAACCAAAAUUUUACACACUCCGGUUAUGUGUGUGAAAGGUUAUAAAAGGAAUGGCCGGGUGCGGUGGCUCACCCCUGUAUGGAAUUCUCGGGUGCCAA | 0.415
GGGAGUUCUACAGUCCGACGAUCAUAGUGUUCACAAACUGUGAAAAUAGUGUAAGAACUGUACAUUGUGAGCUCUGGUUAUUUUUCUCUUGUACCAUAUGAAAGUAUAUAAAAAUUAUCAAAAAGCUGAUGUGUGGAAUUCUCGGGUGCCAA | 0.434
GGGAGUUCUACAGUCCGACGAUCGAAAUAUAGGGGAGGUGGACUGUAAGGGAUAUAUAACCAGUGUGAAGAACUGCUUCAUAAAAUAUGUAUUAAGUAUUGUAUUUCCCUCUUAGCAGUUGAAUCCAAACCAGUGGAAUUCUCGGGUGCCAA | 0.424
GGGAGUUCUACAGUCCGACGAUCCAGCAAAGUAAUUAUGGACCAAUAACUAUGUUCACCCUGAAACUUUUAUGCCACCAAUCACCAAAAAUUGAUACCACAUUCUUUAUUAUAAUGCUUUAUACUUUGCCAGGUGGAAUUCUCGGGUGCCAA | 0.57

Study 4
Target: Prothrombin, mature alpha-thrombin (F2, Homo sapiens, UniProt P00734)
Technique: aptamer microarray, sandwich
Form: DNA with 2'F-ANA
Sample: in vitro
Concentration: 200 nM
Notes: whole 15-mer aptamer, many near background
Together with: Cy3 exosite-II aptamer, 400 nM
Reading: higher = stronger binding
Strand: GGTTGGTGTGGTTGG
Modification | mean fluorescence intensity [a.u.]
2'F-ANA at 1 2 3 4 7 9 11 12 13 14 | 60.1
2'F-ANA at 1 2 3 5 8 9 10 11 14 | 49.5
2'F-ANA at 1 4 6 10 11 12 13 15 | 53.4
2'F-ANA at 2 5 6 9 10 11 | 55.2
2'F-ANA at 1 4 5 6 8 9 11 12 13 | 63.7
2'F-ANA at 1 2 3 6 7 8 9 13 | 155
2'F-ANA at 3 4 5 6 8 9 10 12 15 | 59.7
2'F-ANA at 1 4 6 8 10 13 14 | 65.4
2'F-ANA at 3 5 11 12 14 15 | 57.3
2'F-ANA at 1 2 3 6 10 11 12 13 14 | 58.1
2'F-ANA at 1 2 5 6 7 9 12 14 | 52
2'F-ANA at 3 5 7 8 9 10 11 13 | 70.7
2'F-ANA at 1 3 5 9 11 13 | 53.7
2'F-ANA at 2 5 8 9 10 13 15 | 48.8
2'F-ANA at 2 3 4 6 10 11 15 | 186
2'F-ANA at 1 8 9 10 15 | 58.6
2'F-ANA at 2 8 9 10 11 12 14 15 | 84.3
2'F-ANA at 1 3 5 6 7 12 13 | 86.9
2'F-ANA at 1 2 5 6 9 11 13 14 | 55.5
2'F-ANA at 1 2 3 4 7 12 13 | 275
2'F-ANA at 1 2 3 7 11 13 15 | 176
2'F-ANA at 1 2 4 7 8 10 15 | 50
2'F-ANA at 1 2 3 5 6 9 10 15 | 47.4
2'F-ANA at 2 7 10 14 | 90.5
2'F-ANA at 2 4 5 7 8 12 13 14 15 | 46.2

Some of these lines once more (study 1):
Strand | fluorescence intensity
CTATGTTGTCAAGTGATCATTAATAATAACATGTTCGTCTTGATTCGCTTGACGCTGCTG | 2340 a.u.
CTATTTCATTAAGAGCACGTTTGAGCTTATTAGTTCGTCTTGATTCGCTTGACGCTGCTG | 678 a.u.
GAAGGTGCGAAATTTTACGTGATTCATTTTCTTTAGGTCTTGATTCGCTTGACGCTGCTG | 571 a.u.
CTATTCATAATTTATTTGGTGACATTTCTCTTGTTCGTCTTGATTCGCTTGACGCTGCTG | 561 a.u.
CTATCGATCCCCCTCATCGTGATGTAGTCAACCTTCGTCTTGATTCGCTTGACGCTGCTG | 520 a.u.
GAAACGTTTAATAACAGGGTGACGGAGCTTAAATAGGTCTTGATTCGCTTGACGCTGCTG | 502 a.u.
GAACAATTTTCTCATCACCCCGAAACAACAAAATAGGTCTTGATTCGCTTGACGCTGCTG | 588 a.u.
GAATTCTTCCTTCCTCTCGTGCTTGTTGCAAATTAGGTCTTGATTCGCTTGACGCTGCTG | 583 a.u.
CCTAACTACTATAGTCATGATTAATAGCTTCGTACAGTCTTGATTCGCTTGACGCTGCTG | 520 a.u.
GAAGCGCAAATCGTTTTCATGACGGAGTATTTATAGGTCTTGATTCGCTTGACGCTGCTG | 519 a.u.
CTATACCAACAGCACGGCATGATGACCCCAAACTTCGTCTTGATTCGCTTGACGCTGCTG | 553 a.u.
GAAGTTTTATCGTATCACGGGATTTTATGCTCTTAGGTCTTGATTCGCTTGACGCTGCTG | 3150 a.u.
GAATCGTTTCGTCTCAACGTGGGAACGATCAAATAGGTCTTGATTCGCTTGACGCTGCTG | 507 a.u.
GAATTCGGTTTGCTGAACATCAGGGAAAAAAATTAGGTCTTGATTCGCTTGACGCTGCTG | 561 a.u.
